Measured values gathered from unrelated publications.
Each line is one published result; not all experiments were run side by side. Several values in a cell are separate wells, animals, samples, runs or records. Numbers after ± are the reported error.

Nc1ccn([C@@H]2O[C@H](CO)[C@@H](O)C2(F)F)c(=O)n1  ED50 (PANC-1, compound-resistant; cell proliferation, CCK-8; 4 d; relative to: untreated): 52.8 ± 4.9 nM
CCCOc1nc(-c2cccc(O)c2)cc(-c2cc3cc(Cl)ccc3nc2N2CCOCC2)c1C#N  EC50 (WI-38; cell viability, MTT; 72 h): 61 ± 1 nM
Cc1c(C)c2c(c(C)c1O)CCC(C)(COc1ccc(CC3SC(=O)NC3=O)cc1)O2 (centres unmarked)  point of departure (HepG2; high content imaging, refers to: nuclear size; 24 h, expected PoD over plates): 39.8 µM
CC(/C=C/C(=O)NO)=C\[C@@H](C)C(=O)c1ccc(N(C)C)cc1  viability (HBL-1; 1 µM, 120 h): 0.696%
Nc1[nH]nc2nnc(-c3c(-c4ccccc4)nn4ccccc34)cc12  inhibition (HeLa expressing Ub(G76V)-GFP; Ub(G76V)-GFP degradation, cycloheximide chase; 12 µM): 20%
CCn1cc(-c2cc(Cn3ccnc3)cc3c2CCN([C@H](c2cc(OC)ccn2)C2CC2)C3=O)c(C(F)(F)F)n1  EC50 (OCI-Ly7; cell growth, inhibitor; 120 h): 16100 nM
CC/C(=N\NC(=O)NCc1cccc(O)c1)c1ccc(O)c(C)c1O  relative cell number (SK-OV-3; ATP; 10 µM, 4 days, 3D U-bottom low-attachment; relative to: untreated): 247%
COc1cc2c(NC3CCN(C(C)C)CC3)nc(C3CCCCC3)nc2cc1OCCCN1CCCC1  viability (HBL-1; 0.1 µM, 120 h): 124%
Cn1cc(-c2ccc(-c3cncc(Cl)c3N3CCC4(CCNC4=O)CC3)cc2)cn1  fold change in expression (COLO 205; microarray, refers to: CASC5; concentration not given, 6 h, gene set AF15q14; relative to: untreated cells): -2.28
CCCCN1C[C@H](O)[C@@H](O)[C@@H](O)[C@H]1CO  IC50 (sample G patient fibroblasts; GlcCer level lowering, LC-MS/MS, refers to: GlcCer d18:1/16:0; 216 h): 16100 nM
O=C(C[C@@H](C(F)F)n1ccc(F)n1)N1CCC(O)(Cn2cnc3c(cnn3-c3ccc(F)cc3)c2=O)CC1  cells in G1 phase (CHP-212 resistant cells (pooled); PI flow cytometry; 0.3 µM, 24 h): 73.7% and 74.4% and 71.3%
CCS(=O)(=O)c1nc(C2CC2)cc(C(F)(F)F)n1  cells with nuclear RelA (HeLa Kyoto; RelA nuclear import, high content imaging; 1.58 µM, 3 h, added: 1 µM PMA, 60 min): 85.2% and 76.5%
COc1cnc2cccc(N3CCc4c(cc(Cn5ccnc5C)cc4-c4cn(C)nc4C(F)(F)F)C3=O)c2c1  EC50 (NCI-H2087; cell growth, inhibitor; 120 h): 146 nM
CN1CCN(c2ccc(C(=O)Nc3n[nH]c4ccc(Cc5cc(F)cc(F)c5)cc34)c(NC3CCOCC3)c2)CC1  inhibition (BT-12; cell viability, MTT; 10 µM, 72 h): 93.7%
CCc1cnc(N2CCC(c3nc(COc4ccc(-n5cnnn5)cc4)cs3)CC2)nc1  normalized enrichment score (HEK-293T; RNA-seq GSEA, refers to: HALLMARK_P53_PATHWAY; concentration not given; direction not given): 1.26
CCCCCCCCOC(=O)C(=O)CCC(=O)O  viability (HBL-1; 1 µM, 120 h): 103%
CCn1cc(-c2cc(Cn3ccoc3=N)cc3c2CCN([C@@H](C)c2cc(OC)ccn2)C3=O)c(C(F)(F)F)n1  EC50 (RS4; cell growth, inhibitor; 120 h): 31.2 nM
O=C(/C=C/c1cccc(S(=O)(=O)Nc2ccccc2)c1)NO  inhibition (BT-12; cell viability, MTT; 10 µM, 72 h): 94.2%
COc1ccc(S(=O)(=O)N(CCO)c2ccccc2CN(C)C/C=C/c2ccc(Cl)cc2)cc1  inhibition (HeLa expressing Ub(G76V)-GFP; Ub(G76V)-GFP degradation, cycloheximide chase; 12 µM): 13%
CCOC(=O)CCNc1cc(N2CCc3ccccc3CC2)nc(-c2cccnc2)n1  viability (HBL-1; 0.1 µM, 120 h): 111%
COC(=O)[C@]12CCC(C)(C)C[C@H]1[C@H]1C(=O)C=C3[C@@]4(C)C=C(C#N)C(=O)C(C)(C)[C@@H]4CC[C@@]3(C)[C@]1(C)CC2  inhibition (BT-12; cell viability, MTT; 10 µM, 72 h): 94%
O=c1oc2c(O)c(O)cc3c(=O)oc4c(O)c(O)cc1c4c23  viability (HBL-1; 0.1 µM, 120 h): 98.6%
CN(C)c1ccc(/C=C2\C(=O)Nc3ccccc32)cc1  inhibition (HeLa expressing Ub(G76V)-GFP; Ub(G76V)-GFP degradation, inhibitor, cycloheximide chase; 12 µM): 29%
O=C(/C=C/c1ccc(CN(CCO)CCc2c[nH]c3ccccc23)cc1)NO  viability (HBL-1; 1 µM, 120 h): 0.352%
O=C(/C=C/C=C/C=C/C1CCCCC1)NC1=C[C@@](O)(/C=C/C=C/C=C/C(=O)NC2=C(O)CCC2=O)[C@@H]2O[C@@H]2C1=O  GI50 (Huh-7; cell growth, CellTiter-Glo; 78 h): 14500 nM
O=C(CCCCCCC(=O)NO)NO  viability (HBL-1; 0.1 µM, 120 h): 138%
COc1ccc(NC(=S)N/N=C/c2cccc3cc4ccccc4nc23)cc1  G1 phase cells (HeLa; PI flow cytometry; IC50, 48 h, added: N-acetylcysteine): 45.5 ± 0.1%
CC(C)N(CCCNC(=O)Nc1ccc(C(C)(C)C)cc1)C[C@H]1O[C@@H](n2cc(Br)c3c(N)ncnc32)[C@H](O)[C@@H]1O  viability (HBL-1; 1 µM, 120 h): 117%
Nc1nc(S)nc(O)c1N=Cc1cn(-c2ccccc2)nc1-c1ccc(Cl)cc1  caspase-3 activated cells (CCRF-CEM; flow cytometry; CC50, 8 h): 30.8%

For quick reference, copied from above:
CCCOc1nc(-c2cccc(O)c2)cc(-c2cc3cc(Cl)ccc3nc2N2CCOCC2)c1C#N  EC50 (WI-38; cell viability, MTT; 72 h): 61 ± 1 nM
Cc1c(C)c2c(c(C)c1O)CCC(C)(COc1ccc(CC3SC(=O)NC3=O)cc1)O2 (centres unmarked)  point of departure (HepG2; high content imaging, refers to: nuclear size; 24 h, expected PoD over plates): 39.8 µM
CC(/C=C/C(=O)NO)=C\[C@@H](C)C(=O)c1ccc(N(C)C)cc1  viability (HBL-1; 1 µM, 120 h): 0.696%
Nc1[nH]nc2nnc(-c3c(-c4ccccc4)nn4ccccc34)cc12  inhibition (HeLa expressing Ub(G76V)-GFP; Ub(G76V)-GFP degradation, cycloheximide chase; 12 µM): 20%
